Measured values of several laboratories.
Every numbered part comes from another study and shows a few of its results, in no order. Several values in a cell are separate wells, animals, samples, runs or records.
Chain of UniProt P27338 (whole entry, looked up): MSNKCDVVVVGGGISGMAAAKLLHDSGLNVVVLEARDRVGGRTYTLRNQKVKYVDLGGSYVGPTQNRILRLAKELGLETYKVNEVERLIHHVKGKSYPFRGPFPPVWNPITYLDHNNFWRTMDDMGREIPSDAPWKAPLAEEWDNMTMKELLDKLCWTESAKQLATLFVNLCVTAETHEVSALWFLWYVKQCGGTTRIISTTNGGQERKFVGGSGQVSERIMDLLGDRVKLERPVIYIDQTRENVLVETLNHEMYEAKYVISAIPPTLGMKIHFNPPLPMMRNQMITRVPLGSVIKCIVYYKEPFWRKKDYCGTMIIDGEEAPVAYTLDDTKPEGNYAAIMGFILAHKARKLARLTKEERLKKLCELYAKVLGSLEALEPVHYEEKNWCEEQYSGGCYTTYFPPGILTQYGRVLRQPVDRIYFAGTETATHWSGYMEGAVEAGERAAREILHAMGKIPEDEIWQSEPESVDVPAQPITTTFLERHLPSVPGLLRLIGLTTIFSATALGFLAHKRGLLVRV
Chain of UniProt O70423 (whole entry, looked up): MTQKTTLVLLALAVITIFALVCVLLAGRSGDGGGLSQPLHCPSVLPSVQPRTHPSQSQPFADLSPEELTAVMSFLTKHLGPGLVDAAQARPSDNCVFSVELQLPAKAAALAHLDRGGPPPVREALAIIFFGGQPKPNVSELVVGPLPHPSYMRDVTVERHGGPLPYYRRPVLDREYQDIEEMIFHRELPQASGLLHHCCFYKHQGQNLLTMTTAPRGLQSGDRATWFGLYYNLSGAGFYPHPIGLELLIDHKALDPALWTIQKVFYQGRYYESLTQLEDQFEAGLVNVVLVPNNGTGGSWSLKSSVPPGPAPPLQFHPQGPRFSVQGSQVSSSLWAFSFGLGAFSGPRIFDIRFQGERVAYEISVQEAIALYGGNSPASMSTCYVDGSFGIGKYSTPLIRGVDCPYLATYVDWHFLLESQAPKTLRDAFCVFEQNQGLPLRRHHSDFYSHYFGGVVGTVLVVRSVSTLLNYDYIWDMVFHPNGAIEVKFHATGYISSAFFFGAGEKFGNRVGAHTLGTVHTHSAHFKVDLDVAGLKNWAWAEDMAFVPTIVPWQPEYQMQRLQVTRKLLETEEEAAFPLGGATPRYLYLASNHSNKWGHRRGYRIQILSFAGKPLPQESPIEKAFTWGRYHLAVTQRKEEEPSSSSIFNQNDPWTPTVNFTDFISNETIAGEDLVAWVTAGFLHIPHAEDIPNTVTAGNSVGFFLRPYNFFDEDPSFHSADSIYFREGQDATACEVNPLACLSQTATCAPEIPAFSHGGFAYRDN
Chain of UniProt O08590 (whole entry, looked up): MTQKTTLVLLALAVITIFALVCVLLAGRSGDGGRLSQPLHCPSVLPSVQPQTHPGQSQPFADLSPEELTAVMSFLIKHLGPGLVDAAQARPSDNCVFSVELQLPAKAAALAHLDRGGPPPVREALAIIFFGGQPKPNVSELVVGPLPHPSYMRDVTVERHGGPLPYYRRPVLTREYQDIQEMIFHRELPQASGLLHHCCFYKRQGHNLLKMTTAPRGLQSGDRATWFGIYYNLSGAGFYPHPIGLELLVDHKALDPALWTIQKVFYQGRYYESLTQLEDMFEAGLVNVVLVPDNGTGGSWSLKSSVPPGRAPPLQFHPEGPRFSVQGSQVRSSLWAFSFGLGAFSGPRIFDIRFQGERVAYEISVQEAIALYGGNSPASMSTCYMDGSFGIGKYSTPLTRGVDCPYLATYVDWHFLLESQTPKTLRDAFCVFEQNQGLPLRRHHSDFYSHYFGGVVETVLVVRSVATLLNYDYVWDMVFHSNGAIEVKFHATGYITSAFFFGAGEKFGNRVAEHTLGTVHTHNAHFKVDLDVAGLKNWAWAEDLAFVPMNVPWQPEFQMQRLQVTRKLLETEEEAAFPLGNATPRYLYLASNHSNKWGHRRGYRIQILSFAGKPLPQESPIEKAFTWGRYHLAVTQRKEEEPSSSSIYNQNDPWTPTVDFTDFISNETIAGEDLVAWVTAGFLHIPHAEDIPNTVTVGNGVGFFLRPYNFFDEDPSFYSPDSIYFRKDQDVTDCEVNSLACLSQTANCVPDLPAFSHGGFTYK

Sample 1
Compound: Cc1ccc(O)c(C)c1-c1cnc2[nH]c(-c3cnc(N)nc3)cc2c1C#N
Target: Membrane-associated tyrosine- and threonine-specific cdc2-inhibitory kinase (PKMYT1, Homo sapiens, UniProt Q99640)
Effect on: target engagement
Method: NanoBRET
Residues (Q99640 1-499): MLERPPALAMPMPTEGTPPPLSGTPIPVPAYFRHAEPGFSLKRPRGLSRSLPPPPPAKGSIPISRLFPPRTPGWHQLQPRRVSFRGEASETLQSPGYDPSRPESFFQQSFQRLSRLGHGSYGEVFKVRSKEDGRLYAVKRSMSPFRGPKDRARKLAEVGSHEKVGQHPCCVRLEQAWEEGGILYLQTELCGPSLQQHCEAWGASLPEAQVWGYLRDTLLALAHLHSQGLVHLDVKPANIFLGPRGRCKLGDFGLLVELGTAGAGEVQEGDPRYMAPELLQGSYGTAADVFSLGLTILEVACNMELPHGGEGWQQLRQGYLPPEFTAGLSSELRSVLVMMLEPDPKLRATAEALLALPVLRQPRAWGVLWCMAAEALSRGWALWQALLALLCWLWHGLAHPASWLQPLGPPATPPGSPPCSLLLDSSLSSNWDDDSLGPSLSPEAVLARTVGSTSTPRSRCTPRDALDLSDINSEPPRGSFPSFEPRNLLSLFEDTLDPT
| concentration | NanoBRET signal |
| --- | --- |
| 1.37 nM | 22.7 mBU and 21.7 mBU |
| 12.35 nM | 18 mBU and 19.1 mBU |
| 333.33 nM | 17.6 mBU and 17.8 mBU |
| 0.46 nM | 29.7 mBU and 26.7 mBU |
| 111.11 nM | 17.9 mBU and 16.8 mBU |
| 1000 nM | 18.1 mBU and 18.5 mBU |
| 0.15 nM | 29.2 mBU and 27.2 mBU |
| 0.05 nM | 29.3 mBU and 29.1 mBU |

Sample 2
SMILES: C[C@@H]1CN(c2ccc(-c3cc(C(=O)NCCOCCOCCOCCOCCOCCOCCNC(=O)/C=C/c4[nH]cc(C(=O)N[C@@H](CC(N)=O)c5ccc(F)c(Cl)c5)c4-c4ccc(Cl)cc4F)ccc3F)cc2NC(=O)c2ccc(F)cc2C(F)(F)F)C[C@H](C)N1C
Effect on: thermal unfolding
Method: differential scanning fluorimetry
Concentration: 5.5 µM
Reading: higher = more unfolded
DCAF1: DDB1- and CUL4-associated factor 1 (DCAF1, Homo sapiens, UniProt Q9Y4B6)
Chain of UniProt Q9Y4B6 (whole entry, looked up): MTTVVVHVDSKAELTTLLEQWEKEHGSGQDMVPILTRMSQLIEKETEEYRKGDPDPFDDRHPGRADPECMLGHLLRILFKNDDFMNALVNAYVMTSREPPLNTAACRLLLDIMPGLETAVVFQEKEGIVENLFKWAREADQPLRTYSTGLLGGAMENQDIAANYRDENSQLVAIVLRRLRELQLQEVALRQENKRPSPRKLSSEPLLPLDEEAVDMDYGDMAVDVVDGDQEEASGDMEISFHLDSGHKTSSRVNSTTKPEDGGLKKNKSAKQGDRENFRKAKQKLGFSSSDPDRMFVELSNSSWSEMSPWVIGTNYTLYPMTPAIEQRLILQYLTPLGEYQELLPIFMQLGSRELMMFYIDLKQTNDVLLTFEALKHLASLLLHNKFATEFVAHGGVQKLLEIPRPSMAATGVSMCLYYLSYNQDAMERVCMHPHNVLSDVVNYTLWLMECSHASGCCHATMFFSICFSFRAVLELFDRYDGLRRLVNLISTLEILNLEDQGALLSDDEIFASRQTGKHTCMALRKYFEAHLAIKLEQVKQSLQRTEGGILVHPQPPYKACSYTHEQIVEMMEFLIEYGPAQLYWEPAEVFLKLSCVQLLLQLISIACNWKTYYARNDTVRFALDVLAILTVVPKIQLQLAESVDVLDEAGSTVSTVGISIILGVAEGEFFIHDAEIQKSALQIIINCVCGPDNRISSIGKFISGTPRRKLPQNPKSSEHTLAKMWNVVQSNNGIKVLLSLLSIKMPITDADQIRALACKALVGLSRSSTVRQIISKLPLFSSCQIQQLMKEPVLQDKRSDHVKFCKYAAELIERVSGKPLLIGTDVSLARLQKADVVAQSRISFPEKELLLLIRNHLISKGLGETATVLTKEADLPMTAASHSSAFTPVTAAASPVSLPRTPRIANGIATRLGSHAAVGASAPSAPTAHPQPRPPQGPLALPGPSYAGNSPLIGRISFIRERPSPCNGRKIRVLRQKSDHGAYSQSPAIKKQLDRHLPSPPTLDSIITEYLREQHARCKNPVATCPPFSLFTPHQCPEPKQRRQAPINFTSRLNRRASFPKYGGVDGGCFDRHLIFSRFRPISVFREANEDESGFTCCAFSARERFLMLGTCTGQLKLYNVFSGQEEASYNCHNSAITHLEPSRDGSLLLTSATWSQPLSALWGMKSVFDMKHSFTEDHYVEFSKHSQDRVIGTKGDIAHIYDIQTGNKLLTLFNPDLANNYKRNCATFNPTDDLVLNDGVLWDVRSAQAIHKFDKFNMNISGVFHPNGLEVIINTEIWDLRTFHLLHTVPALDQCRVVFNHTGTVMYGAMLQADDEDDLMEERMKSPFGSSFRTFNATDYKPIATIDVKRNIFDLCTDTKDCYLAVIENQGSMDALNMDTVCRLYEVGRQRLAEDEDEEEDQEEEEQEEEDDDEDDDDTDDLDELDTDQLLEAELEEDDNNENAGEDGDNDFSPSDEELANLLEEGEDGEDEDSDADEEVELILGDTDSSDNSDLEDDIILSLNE
WDR5: WD repeat-containing protein 5 (WDR5, Homo sapiens, UniProt P61964)
| target | temperature | SYPRO Orange fluorescence |
| --- | --- | --- |
| DCAF1 | 88.61 °C | 33500 a.u. |
| DCAF1 | 93.01 °C | 30100 a.u. |
| DCAF1 | 41.6 °C | 12600 a.u. |
| DCAF1 | 31.4 °C | 8830 a.u. |
| WDR5 | 25.8 °C | 13200 a.u. |
| WDR5 | 62.41 °C | 15300 a.u. |
| WDR5 | 63.01 °C | 15400 a.u. |
| DCAF1 | 29.8 °C | 8300 a.u. |
| WDR5 | 44.4 °C | 14500 a.u. |
| DCAF1 | 47 °C | 15800 a.u. |
| DCAF1 | 65.01 °C | 53600 a.u. |

Sample 3
SMILES: CS(=O)(=O)c1ccc(OC/C(=C/F)CN)cc1.Cl
MAOA: Amine oxidase [flavin-containing] A (MAOA, Homo sapiens, UniProt P21397)
Chain of UniProt P21397 (whole entry, looked up): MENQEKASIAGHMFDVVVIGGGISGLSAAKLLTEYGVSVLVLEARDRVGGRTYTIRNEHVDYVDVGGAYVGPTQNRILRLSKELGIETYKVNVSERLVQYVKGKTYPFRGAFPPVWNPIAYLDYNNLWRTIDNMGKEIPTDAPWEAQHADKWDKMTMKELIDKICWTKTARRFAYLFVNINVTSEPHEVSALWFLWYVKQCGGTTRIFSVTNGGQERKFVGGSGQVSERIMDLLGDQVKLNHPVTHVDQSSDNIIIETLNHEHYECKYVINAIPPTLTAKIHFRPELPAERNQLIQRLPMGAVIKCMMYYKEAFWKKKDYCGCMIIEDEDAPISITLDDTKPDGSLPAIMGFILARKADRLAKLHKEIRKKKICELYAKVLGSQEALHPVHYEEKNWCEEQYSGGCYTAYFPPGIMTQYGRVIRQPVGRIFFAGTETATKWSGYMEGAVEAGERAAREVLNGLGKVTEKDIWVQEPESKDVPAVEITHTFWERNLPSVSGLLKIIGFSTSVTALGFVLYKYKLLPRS
MPO: Myeloperoxidase (MPO, Homo sapiens, UniProt P05164)
Chain of UniProt P05164 (whole entry, looked up): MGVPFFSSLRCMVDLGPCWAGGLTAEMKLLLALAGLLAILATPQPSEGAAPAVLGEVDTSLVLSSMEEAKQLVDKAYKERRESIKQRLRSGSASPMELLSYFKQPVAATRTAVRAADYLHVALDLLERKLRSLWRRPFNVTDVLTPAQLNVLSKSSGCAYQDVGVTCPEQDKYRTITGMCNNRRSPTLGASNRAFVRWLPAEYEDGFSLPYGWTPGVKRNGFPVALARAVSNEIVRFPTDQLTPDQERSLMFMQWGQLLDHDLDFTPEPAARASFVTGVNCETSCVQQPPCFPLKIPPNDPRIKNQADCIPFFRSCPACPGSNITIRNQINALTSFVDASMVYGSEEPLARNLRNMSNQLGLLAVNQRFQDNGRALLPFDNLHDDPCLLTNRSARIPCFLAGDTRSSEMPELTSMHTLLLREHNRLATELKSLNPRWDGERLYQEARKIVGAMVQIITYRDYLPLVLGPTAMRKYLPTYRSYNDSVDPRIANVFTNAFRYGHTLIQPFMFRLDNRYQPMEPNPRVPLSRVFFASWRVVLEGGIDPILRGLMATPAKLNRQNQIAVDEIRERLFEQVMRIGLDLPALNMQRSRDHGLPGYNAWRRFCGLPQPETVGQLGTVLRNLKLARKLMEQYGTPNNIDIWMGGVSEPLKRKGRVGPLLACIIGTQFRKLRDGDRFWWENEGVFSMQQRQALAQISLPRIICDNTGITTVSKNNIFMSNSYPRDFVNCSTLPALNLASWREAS
| target | effect on | mode | method | sample | concentration | inhibition |
| --- | --- | --- | --- | --- | --- | --- |
| MAOA | enzyme activity | inhibitor | – | – | 0.3704 µM | 2.81% and 6.79% and 7.34% and 1.49% and 0.0485% |
| Amine oxidase [copper-containing] 3 (Mus musculus, UniProt O70423) | – | – | – | mouse adipose tissue | 0.0014 µM | 29.3% |
| MAOA | enzyme activity | inhibitor | – | – | 30 µM | 30.7% and 27.6% and 22.5% and 22.2% and 15.9% |
| MPO | enzyme activity | inhibitor | fluorescence | – | 0.3704 µM | 3.32% and -4.86% and -0.733% |
| Amine oxidase [copper-containing] 3 (Rattus norvegicus, UniProt O08590) | – | – | – | rat adipose tissue | 1.694e-05 µM | -22.1% |
| MPO | enzyme activity | inhibitor | fluorescence | – | 3.333 µM | -5.88% and 0.726% and 0.853% |
| MAOB (Homo sapiens, UniProt P27338) | enzyme activity | inhibitor | – | – | 10 µM | 3.81% and 1.47% |
| AOC1 (Homo sapiens, UniProt P19801) | enzyme activity | inhibitor | – | – | 200 pM | -14.5% |

Sample 4
Compound: C=CC(=O)N1CCN(c2nc(OC[C@@H]3CCCN3C)nc3c2CCN(c2cccc4cccc(C)c24)C3)C[C@@H]1CC#N
Effect on: binding
Mode: competitor
Method: NanoBRET
Cell line: HEK293
KRAS Q61L: GTPase KRas (KRAS, Homo sapiens, UniProt P01116, Q61L)
KRAS G12D: GTPase KRas (KRAS, Homo sapiens, UniProt P01116, G12D)
HRAS: GTPase HRas (HRAS, Homo sapiens, UniProt P01112)
| target | concentration | normalized BRET |
| --- | --- | --- |
| KRAS Q61L | 20 µM | 14.9% and 14.3% and 21.4% |
| KRAS Q61L | 27.4 nM | 91.3% and 93.1% and 93.3% |
| KRAS G12D | 3.05 nM | 94% and 94.8% |
| KRAS G12D | 625 nM | 104% |
| KRAS Q61L | 741 nM | 67.1% and 59.1% and 59.7% |
| GTPase KRas (KRAS, Homo sapiens, UniProt P01116, Q61R) | 1.02 nM | 101% and 92.3% and 98.9% |
| KRAS G12D | 20 µM | 12.4% and 13.4% |
| HRAS | 247 nM | 88.8% and 106% |
| HRAS | 10 µM | 155% |
| HRAS | 38.1 pM | 109% |
